# Experimental data pooled from the literature.
# Every numbered part comes from another study and shows a few of its results, in no order.
# Chain of UniProt Q9Y5S2 (whole entry, looked up): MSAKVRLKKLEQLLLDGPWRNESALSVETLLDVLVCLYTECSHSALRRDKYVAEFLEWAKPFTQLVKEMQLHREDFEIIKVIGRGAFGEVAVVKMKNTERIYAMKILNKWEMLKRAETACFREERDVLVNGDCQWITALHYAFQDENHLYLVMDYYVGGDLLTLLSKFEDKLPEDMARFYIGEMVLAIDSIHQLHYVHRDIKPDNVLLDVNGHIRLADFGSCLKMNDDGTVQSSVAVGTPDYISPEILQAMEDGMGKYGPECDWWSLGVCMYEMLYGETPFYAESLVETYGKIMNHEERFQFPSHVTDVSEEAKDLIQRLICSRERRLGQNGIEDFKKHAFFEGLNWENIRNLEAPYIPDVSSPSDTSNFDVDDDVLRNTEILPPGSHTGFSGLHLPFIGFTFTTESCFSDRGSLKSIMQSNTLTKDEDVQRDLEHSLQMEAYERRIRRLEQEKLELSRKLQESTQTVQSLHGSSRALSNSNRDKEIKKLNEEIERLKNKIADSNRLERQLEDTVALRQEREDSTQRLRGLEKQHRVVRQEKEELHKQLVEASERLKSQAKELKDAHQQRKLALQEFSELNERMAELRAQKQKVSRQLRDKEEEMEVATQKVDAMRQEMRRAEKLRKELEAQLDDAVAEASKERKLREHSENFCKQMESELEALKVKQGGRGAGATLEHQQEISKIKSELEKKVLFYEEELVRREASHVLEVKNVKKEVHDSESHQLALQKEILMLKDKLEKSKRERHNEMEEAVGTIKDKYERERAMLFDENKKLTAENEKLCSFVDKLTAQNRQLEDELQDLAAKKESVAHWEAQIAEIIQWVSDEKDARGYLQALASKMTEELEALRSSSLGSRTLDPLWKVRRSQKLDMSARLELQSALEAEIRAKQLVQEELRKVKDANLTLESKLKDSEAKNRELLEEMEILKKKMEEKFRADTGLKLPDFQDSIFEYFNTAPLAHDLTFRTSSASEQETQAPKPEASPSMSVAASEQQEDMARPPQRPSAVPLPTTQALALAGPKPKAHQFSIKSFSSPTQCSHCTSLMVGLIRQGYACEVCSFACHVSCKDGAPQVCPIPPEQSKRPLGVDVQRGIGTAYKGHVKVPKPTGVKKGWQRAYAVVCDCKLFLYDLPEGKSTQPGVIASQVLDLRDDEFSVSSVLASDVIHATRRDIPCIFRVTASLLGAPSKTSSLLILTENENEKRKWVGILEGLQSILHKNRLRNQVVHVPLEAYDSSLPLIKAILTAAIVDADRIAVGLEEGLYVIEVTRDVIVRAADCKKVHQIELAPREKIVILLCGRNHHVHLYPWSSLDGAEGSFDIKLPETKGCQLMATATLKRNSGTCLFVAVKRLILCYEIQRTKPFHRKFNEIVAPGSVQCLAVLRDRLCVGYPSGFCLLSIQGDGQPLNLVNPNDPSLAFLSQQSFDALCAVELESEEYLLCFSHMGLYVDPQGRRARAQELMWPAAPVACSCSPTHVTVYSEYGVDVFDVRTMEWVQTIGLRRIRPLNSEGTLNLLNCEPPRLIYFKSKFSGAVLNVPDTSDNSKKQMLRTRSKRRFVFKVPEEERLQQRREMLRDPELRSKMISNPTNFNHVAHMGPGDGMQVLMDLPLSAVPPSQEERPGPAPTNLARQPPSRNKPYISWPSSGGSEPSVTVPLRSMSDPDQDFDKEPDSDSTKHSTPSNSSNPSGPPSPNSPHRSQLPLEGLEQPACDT
# Chain of UniProt Q99759 (whole entry, looked up): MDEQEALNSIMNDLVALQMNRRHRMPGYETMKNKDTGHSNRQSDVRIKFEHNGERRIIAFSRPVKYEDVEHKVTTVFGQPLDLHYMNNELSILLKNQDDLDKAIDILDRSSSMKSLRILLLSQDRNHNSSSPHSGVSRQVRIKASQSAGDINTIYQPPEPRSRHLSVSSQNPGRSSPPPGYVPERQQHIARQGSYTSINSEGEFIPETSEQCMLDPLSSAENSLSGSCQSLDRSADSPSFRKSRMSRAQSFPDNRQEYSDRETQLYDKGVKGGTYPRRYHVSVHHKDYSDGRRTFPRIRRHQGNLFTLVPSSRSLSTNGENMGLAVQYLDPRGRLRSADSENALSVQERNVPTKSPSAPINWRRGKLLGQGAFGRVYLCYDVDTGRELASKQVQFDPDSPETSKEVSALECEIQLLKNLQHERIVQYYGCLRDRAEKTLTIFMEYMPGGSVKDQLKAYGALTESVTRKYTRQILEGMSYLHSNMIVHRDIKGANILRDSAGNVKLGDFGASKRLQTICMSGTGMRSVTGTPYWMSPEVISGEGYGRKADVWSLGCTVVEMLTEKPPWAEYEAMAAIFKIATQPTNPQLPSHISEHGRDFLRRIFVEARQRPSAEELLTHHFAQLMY
# Chain of UniProt Q9NSY1 (whole entry, looked up): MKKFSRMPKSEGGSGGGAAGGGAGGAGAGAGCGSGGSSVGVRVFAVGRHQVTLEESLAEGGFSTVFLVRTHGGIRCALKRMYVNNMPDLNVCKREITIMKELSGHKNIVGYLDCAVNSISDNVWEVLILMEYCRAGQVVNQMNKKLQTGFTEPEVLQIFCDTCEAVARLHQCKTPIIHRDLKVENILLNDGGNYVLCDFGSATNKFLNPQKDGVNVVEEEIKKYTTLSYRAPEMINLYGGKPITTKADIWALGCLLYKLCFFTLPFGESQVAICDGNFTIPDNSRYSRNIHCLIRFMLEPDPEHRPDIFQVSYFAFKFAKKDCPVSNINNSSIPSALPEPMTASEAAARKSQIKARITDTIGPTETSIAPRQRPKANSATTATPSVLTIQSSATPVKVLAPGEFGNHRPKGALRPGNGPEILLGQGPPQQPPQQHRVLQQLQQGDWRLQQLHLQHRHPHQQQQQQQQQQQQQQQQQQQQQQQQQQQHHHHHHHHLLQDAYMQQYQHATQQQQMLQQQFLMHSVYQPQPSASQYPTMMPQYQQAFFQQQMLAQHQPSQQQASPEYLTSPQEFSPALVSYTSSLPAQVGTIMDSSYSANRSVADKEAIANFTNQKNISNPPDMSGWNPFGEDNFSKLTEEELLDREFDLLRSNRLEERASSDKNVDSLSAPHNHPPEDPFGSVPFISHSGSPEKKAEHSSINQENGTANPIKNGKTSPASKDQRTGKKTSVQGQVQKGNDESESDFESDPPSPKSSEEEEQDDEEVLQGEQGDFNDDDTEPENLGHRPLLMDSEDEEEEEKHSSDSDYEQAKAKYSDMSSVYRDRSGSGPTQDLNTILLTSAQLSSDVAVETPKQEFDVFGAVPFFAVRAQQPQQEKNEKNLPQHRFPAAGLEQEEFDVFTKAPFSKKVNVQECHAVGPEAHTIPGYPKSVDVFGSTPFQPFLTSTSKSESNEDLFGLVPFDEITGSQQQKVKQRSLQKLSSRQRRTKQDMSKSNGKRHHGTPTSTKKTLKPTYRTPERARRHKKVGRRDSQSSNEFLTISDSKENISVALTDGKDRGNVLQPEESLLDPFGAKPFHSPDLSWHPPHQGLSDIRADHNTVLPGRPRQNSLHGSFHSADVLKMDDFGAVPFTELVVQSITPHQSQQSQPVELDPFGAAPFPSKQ
# Chain of UniProt Q8TF76 (whole entry, looked up): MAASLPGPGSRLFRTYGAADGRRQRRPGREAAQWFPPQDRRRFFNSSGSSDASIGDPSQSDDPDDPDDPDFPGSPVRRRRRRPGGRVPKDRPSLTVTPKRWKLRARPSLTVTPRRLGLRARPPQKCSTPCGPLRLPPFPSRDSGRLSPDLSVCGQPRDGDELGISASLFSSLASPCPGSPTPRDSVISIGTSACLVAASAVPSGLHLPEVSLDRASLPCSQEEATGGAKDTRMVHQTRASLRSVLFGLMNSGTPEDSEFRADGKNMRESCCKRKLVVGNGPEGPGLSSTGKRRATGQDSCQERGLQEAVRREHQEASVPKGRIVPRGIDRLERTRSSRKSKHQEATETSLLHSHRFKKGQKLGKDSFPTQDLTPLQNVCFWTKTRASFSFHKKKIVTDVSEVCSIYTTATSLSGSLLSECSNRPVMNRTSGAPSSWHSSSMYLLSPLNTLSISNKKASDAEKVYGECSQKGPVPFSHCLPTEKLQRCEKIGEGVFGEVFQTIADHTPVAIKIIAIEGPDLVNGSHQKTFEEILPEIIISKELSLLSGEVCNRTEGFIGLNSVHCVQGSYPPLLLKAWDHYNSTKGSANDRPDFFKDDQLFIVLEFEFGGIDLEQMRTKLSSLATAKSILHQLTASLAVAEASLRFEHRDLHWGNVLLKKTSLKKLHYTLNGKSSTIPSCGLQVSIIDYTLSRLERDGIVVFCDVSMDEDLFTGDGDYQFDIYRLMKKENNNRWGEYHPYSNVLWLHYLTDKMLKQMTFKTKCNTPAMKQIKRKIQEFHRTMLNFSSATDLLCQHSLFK
# Chain of UniProt P11802 (whole entry, looked up): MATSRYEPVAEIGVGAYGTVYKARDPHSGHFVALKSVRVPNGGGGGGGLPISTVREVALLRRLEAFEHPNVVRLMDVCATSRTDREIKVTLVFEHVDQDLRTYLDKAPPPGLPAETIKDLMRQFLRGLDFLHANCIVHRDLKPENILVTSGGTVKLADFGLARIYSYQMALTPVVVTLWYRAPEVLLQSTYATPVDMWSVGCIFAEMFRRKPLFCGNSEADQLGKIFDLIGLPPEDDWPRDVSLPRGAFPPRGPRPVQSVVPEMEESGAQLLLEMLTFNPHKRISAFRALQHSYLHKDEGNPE

# Series 1 — host: human; sample: microsomes or S9; tested at: 2 µM; time: 0.5 h
SMILES,remaining compound [%]
CCOC(=O)N1CCC(NC(=O)COCC(=O)Nc2ccc(C#N)cc2)CC1,65.5
Cc1nc2nc(C)c(Cc3cccc4ccccc34)c(O)n2n1,5.71
CCOC(=O)c1c(NC(=O)CCC(=O)N(CC)CC)sc2c1CC(C)(C)OC2,0.538
CC(C)n1ncc2c(=O)n(Cc3ncc(Cl)cc3Cl)cnc21,15.5
CCN1CCCC1CN(Cc1cccnc1)Cc1cccc(Oc2ncccn2)c1 (centres unmarked),76.3
COc1cnc(CN2CCCCC2c2ccc(CN(C)C)cc2)cc1O (centres unmarked),74.4
CCCc1c(C(=O)NC2CC2)nnn1-c1ccc(NC(=O)CC(F)(F)F)cc1,79.7
O=C1c2ccccc2CN1C(c1cccc(F)c1)c1nc2cncnc2[nH]1 (centres unmarked),62.1
O=C(O)c1ccc(Nc2nc(-c3ccc(Cl)cc3)cs2)cc1,86.9
O=S(=O)(NC1CCCC12CCOCC2)c1cccc2ccoc12 (centres unmarked),69.8
CCC(Oc1ccccc1)C(=O)Nc1cccc2c1CCCC2 (centres unmarked),1.21

# Series 2 — tested at: 1 µM
# SMILES: CN(C)C(=O)Cn1cc(-c2nc(C3(c4ccc(-c5cnc(N)nc5)cc4)CC3)no2)cn1
target,assay,remaining binding
"TTK (Homo sapiens, UniProt P33981)","cell-free assay, competition with immobilised ligand",100%
"STK11 (Homo sapiens, UniProt Q15831)","cell-free assay, competition with immobilised ligand",100%
"HASPIN (Homo sapiens, UniProt Q8TF76)","cell-free assay, competition with immobilised ligand",74%
"Receptor-type tyrosine-protein kinase FLT3, autoinhibited (FLT3, Homo sapiens, UniProt P36888)","cell-free assay, competition with immobilised ligand",81%
"MELK (Homo sapiens, UniProt Q14680)","cell-free assay, competition with immobilised ligand",92%
"Ribosomal protein S6 kinase alpha-2, N-terminal kinase domain (RPS6KA2, Homo sapiens, UniProt Q15349)","cell-free assay, competition with immobilised ligand",100%
"BMP2K (Homo sapiens, UniProt Q9NSY1)","cell-free assay, competition with immobilised ligand",99%
"FGFR1 (Homo sapiens, UniProt P11362)","cell-free assay, competition with immobilised ligand",72%
"AAK1 (Homo sapiens, UniProt Q2M2I8)",binding,100%
"CDC42BPB (Homo sapiens, UniProt Q9Y5S2)","cell-free assay, competition with immobilised ligand",85%
"Non-receptor tyrosine-protein kinase TYK2, JH1 (TYK2, Homo sapiens, UniProt P29597)","cell-free assay, competition with immobilised ligand",100%
"BMPR1B (Homo sapiens, UniProt O00238)","cell-free assay, competition with immobilised ligand",99%
"EGFR (Homo sapiens, UniProt P00533, del747-750/T751S)","cell-free assay, competition with immobilised ligand",100%
"MAP3K3 (Homo sapiens, UniProt Q99759)","cell-free assay, competition with immobilised ligand",81%
"MAP3K15 (Homo sapiens, UniProt Q6ZN16)","cell-free assay, competition with immobilised ligand",100%
"CSNK1D (Homo sapiens, UniProt P48730)","cell-free assay, competition with immobilised ligand",100%
"EGFR (Homo sapiens, UniProt P00533, T790M)","cell-free assay, competition with immobilised ligand",80%
"ACVR1B (Homo sapiens, UniProt P36896)","cell-free assay, competition with immobilised ligand",84%
"DYRK1B (Homo sapiens, UniProt Q9Y463)","cell-free assay, competition with immobilised ligand",66%
"NEK3 (Homo sapiens, UniProt P51956)","cell-free assay, competition with immobilised ligand",57%

# Series 3 — Structure (SMILES): O=C(Nc1ccccc1)Nc1cccc(Oc2ccc3nccn3n2)c1; tested at: 1 µM
target,assay,conditions,scale,remaining binding [%]
"CDK4 (Homo sapiens, UniProt P11802)",competitive binding scan,together with: cyclin D1,,76
"MAP3K3 (Homo sapiens, UniProt Q99759)",competitive binding panel,,reference: vehicle,100
"INSRR (Homo sapiens, UniProt P14616)",competitive binding panel,,reference: vehicle,100
"SIK2 (Homo sapiens, UniProt Q9H0K1)",competitive binding panel,,reference: vehicle,88
"PIM3 (Homo sapiens, UniProt Q86V86)",competitive binding panel,,reference: vehicle,100
"EGFR (Homo sapiens, UniProt P00533, del746-750)",competitive binding panel,,reference: vehicle,52
"CDC42BPB (Homo sapiens, UniProt Q9Y5S2)",competitive binding,MRCKB,,96
"WNK4 (Homo sapiens, UniProt Q96J92)",competitive binding panel,,reference: vehicle,83
"PRKCI (Homo sapiens, UniProt P41743)",competitive binding panel,,reference: vehicle,79
"CDPK1 (Plasmodium falciparum, UniProt P62344)","competitive binding, scanMAX","Plasmodium falciparum CDPK1, 1000 nM",,81
"PIP5K1C (Homo sapiens, UniProt O60331)",competitive binding panel,,reference: vehicle,51
"ABL1 (Homo sapiens, UniProt P00519, E255K)",competitive binding panel,,reference: vehicle,93
"STK16 (Homo sapiens, UniProt O75716)",competitive binding panel,,reference: vehicle,100
"KIT (Homo sapiens, UniProt P10721)",competitive binding scan,autoinhibited form,,61
"AKT3 (Homo sapiens, UniProt Q9Y243)",competitive binding panel,,reference: vehicle,80
"CSNK2A1 (Homo sapiens, UniProt P68400)",competitive binding panel,,reference: vehicle,100

# Series 4 — read-out: enzyme activity; mode: inhibitor; tested at: 0.5 µM; reference: control
# Target: Death-associated protein kinase 3 (DAPK3, Homo sapiens, UniProt O43293)
# Chain of UniProt O43293 (whole entry, looked up): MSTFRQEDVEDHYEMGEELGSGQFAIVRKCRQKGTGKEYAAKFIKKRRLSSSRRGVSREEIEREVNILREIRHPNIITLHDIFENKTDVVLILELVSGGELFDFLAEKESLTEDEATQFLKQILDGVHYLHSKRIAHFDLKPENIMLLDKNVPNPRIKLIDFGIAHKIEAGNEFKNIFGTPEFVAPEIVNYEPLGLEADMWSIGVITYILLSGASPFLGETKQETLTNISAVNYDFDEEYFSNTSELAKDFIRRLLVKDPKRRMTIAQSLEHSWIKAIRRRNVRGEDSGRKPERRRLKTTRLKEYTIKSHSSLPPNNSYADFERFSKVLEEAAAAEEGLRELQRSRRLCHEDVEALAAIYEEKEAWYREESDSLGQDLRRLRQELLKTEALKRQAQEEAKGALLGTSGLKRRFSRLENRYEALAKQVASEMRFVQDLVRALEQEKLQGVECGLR
Structure (SMILES),remaining activity [%]
Cc1cn(-c2cc(NC(=O)c3ccc(C)c(Nc4nccc(-c5cccnc5)n4)c3)cc(C(F)(F)F)c2)cn1,97
Cn1nc2c3c(cccc31)C(=O)c1ccccc1-2,102
COc1cc2ncnc(Nc3ccc(O)c(Br)c3)c2cc1OC,99.1
N#Cc1c(NC(=O)c2cccc3ccccc23)sc2c1CCCC2,110
O=C(Nc1cccc(Nc2nccc(Nc3cccc(C(F)(F)F)c3)n2)c1)C1CC1,94.3
CCN(CC)CCNC(=O)c1c(C)[nH]c(/C=C2\C(=O)Nc3ccc(F)cc32)c1C,74.2
CCN(CC)C(=O)c1ccc(Nc2nc(OCC3CCCCC3)c3[nH]cnc3n2)cc1,98.4
O=C1c2ccccc2-c2n[nH]c3cccc1c23,88.4
CCN(CC)CCNC(=O)c1c(C)[nH]c(/C=C2\C(=O)Nc3ccc(Cl)cc32)c1C,54.3
O=c1cc(-c2cccc3c2Sc2ccccc2S3)oc(N2CCOCC2)c1,106
COc1cc2ncnc(Nc3cccc(Cl)c3)c2cc1OC,94.6
CCOc1nc(NC(=O)Cc2cc(OC)ccc2OC)cc(N)c1C#N,111

# A few entries again (series 3):
target,assay,conditions,scale,remaining binding [%]
"CDC42BPB (Homo sapiens, UniProt Q9Y5S2)",competitive binding,MRCKB,,96
"WNK4 (Homo sapiens, UniProt Q96J92)",competitive binding panel,,reference: vehicle,83
"PRKCI (Homo sapiens, UniProt P41743)",competitive binding panel,,reference: vehicle,79
